# Experimental data collected from several papers.
# Compare with care: the assays were run in different laboratories.
# Organism: Pseudomonas aeruginosa
Compound,assay,system,conditions,MIC
C#CCNC(=O)[C@H]1NC(=O)[C@H]2NC(=O)[C@H](NC(=O)[C@@H]3NC(=O)[C@H](CC(N)=O)NC(=O)[C@H](NC(=O)[C@@H](CC(C)C)NC)[C@H](O)c4ccc(c(Cl)c4)Oc4cc3cc(c4O[C@@H]3O[C@H](CO)[C@@H](O)[C@H](O)[C@H]3O[C@H]3C[C@](C)(N)[C@H](O)[C@H](C)O3)Oc3ccc(cc3Cl)[C@H]2O)c2ccc(O)c(c2)-c2c(O)cc(O)cc21,broth microdilution,"ATCC 10145, cation-adjusted Mueller-Hinton broth",,> 86 µM
CC[C@H](C)[C@H](NC(=O)[C@@H](CCCNC(=N)N)NC(=O)[C@H](CCCNC(=N)N)NC(=O)[C@@H]1CCCN1C(=O)[C@@H]1CCCN1C(=O)[C@H](CCCNC(=N)N)NC(=O)[C@@H]1CCCN1C(=O)[C@H](CCCNC(=N)N)NC(=O)[C@@H]1CCCN1C(=O)[C@H](CC(C)C)NC(=O)[C@H](Cc1c[nH]c2ccccc12)NC(=O)[C@@H]1CCCN1C(=O)[C@@H]1CCCN1C(=O)[C@H](CCCCN)NC(=O)[C@H](CC(=O)O)NC(=O)[C@@H](N)C(C)C)C(=O)N[C@@H](Cc1ccc(O)cc1)C(=O)N[C@@H](CC(N)=O)C(=O)N[C@H](CCCNC(=N)N)C(N)=O,broth microdilution,DSM 1117,"18 h, 37 °C, 25% MHB2",64 µg/mL
CC(C)C[C@@H]1NC(=O)[C@@H](CC(C)C)NC(=O)[C@H](CCN)NC(=O)[C@@H](NC(=O)[C@H](CCN)NC(=O)[C@@H](NC(=O)CN=[N+]=[N-])[C@@H](C)O)CCNC(=O)[C@H]([C@@H](C)O)NC(=O)[C@H](CCN)NC(=O)[C@H](CCN)NC1=O,broth microdilution,"ATCC 27736, cation-adjusted Mueller-Hinton broth",,32 µM
CC[C@H](C)[C@H](NC(=O)[C@H](CCCCN)NC(=O)[C@H](CCCCN)NC(=O)[C@H](Cc1ccccc1)NC(=O)[C@H](Cc1ccccc1)NC(=O)[C@H](CCCCN)NC(=O)[C@H](CCCCN)NC(=O)[C@H](Cc1ccccc1)NC(=O)[C@H](CCCNC(=N)N)NC(=O)[C@@H](N)CCCCN)C(=O)N[C@@H](CCCCN)C(=O)N[C@@H](CCCCN)C(=O)N[C@@H](CO)C(=O)N[C@H](C(=O)N[C@@H](CCCCN)C(=O)N[C@@H](CCCCN)C(=O)N[C@@H](CCCNC(=N)N)C(=O)N[C@H](C(=O)N[C@@H](CCCCN)C(=O)N[C@@H](CCCCN)C(=O)N[C@@H](CC(C)C)C(=O)N[C@@H](Cc1ccccc1)C(=O)N[C@@H](CCCCN)C(=O)N[C@@H](CCCCN)C(=O)N1CCC[C@H]1C(=O)N[C@@H](CCCNC(=N)N)C(=O)N[C@H](C(=O)N[C@H](C(=O)N1CCC[C@H]1C(=O)N[C@H](C(=O)N[C@@H](CO)C(=O)N[C@H](C(=O)N1CCC[C@H]1C(=O)N[C@@H](Cc1ccccc1)C(=O)O)[C@@H](C)CC)[C@@H](C)CC)[C@@H](C)CC)C(C)C)C(C)C)C(C)C,broth microdilution,ATCC 27853,20 h,4 µg/mL
CC(=O)N[C@H](Cc1cccc(F)c1)C(=O)N[C@@H](CCN)C(=O)N[C@H](C(=O)N[C@@H](CCN)C(=O)N[C@H]1CCNC(=O)[C@H]([C@@H](C)O)NC(=O)[C@H](CCN)NC(=O)[C@H](CCN)NC(=O)[C@H](CC(C)C)NC(=O)[C@@H](Cc2ccccc2)NC(=O)[C@H](CCN)NC1=O)[C@@H](C)O,broth microdilution,colistin-resistant isolates,,> 64 µg/mL
c1ccc2c(c1)nc(CNCC13CC4CC(CC(C4)C1)C3)n2CC1CCCCC1,,ATCC 27853,,> 128 µg/mL
C#CCOc1ccc(CN[C@@]2(C)C[C@H](O[C@H]3[C@H](Oc4c5cc6cc4Oc4ccc(cc4Cl)[C@@H](O)[C@@H](NC(=O)[C@@H](CC(C)C)NC)C(=O)N[C@@H](CC(N)=O)C(=O)N[C@H]6C(=O)N[C@H]4C(=O)N[C@H](C(=O)N[C@H](C(=O)N[C@@H](CCCNC(=N)N)C(N)=O)c6cc(O)cc(O)c6-c6cc4ccc6O)[C@H](O)c4ccc(c(Cl)c4)O5)O[C@H](CO)[C@@H](O)[C@@H]3O)O[C@@H](C)[C@H]2O)cc1OC,broth microdilution,"ATCC 17978, cation-adjusted Mueller-Hinton broth",,72 µM
CN[C@@H]1[C@H](O)[C@H](NC)[C@H]2O[C@]3(O)[C@H](O[C@@H]2[C@H]1O)O[C@H](C)C[C@H]3NC(=O)Cc1cscn1,"microbial growth, broth dilution",PAO1,,> 200 µg/mL
C#CCOc1ccc(CN[C@@]2(C)C[C@H](O[C@H]3[C@H](Oc4c5cc6cc4Oc4ccc(cc4Cl)[C@@H](O)[C@@H](NC(=O)[C@@H](CC(C)C)NC)C(=O)N[C@@H](CC(N)=O)C(=O)N[C@H]6C(=O)N[C@H]4C(=O)N[C@H](C(=O)N[C@H](C(=O)O)c6cc(O)cc(O)c6-c6cc4ccc6O)[C@H](O)c4ccc(c(Cl)c4)O5)O[C@H](CO)[C@@H](O)[C@@H]3O)O[C@@H](C)[C@H]2O)cc1OC,broth microdilution,"ATCC 27853, cation-adjusted Mueller-Hinton broth","18 to 20 h, 37 °C, 0.002% polysorbate 80",> 128 µg/mL
CC(C)[C@H](NC(=O)CNC(=O)CNC(=O)[C@H](Cc1ccc(O)cc1)NC(=O)[C@H](CS)NC(=O)[C@@H](NC(=O)[C@H](Cc1c[nH]c2ccccc12)NC(=O)[C@H](Cc1ccccc1)NC(=O)[C@H](CS)NC(=O)[C@H](Cc1c[nH]c2ccccc12)NC(=O)[C@@H](N)CCCNC(=N)N)C(C)C)C(=O)N[C@@H](CS)C(=O)N[C@@H](Cc1ccc(O)cc1)C(=O)N[C@@H](CCCNC(=N)N)C(=O)N[C@@H](CCCNC(=N)N)C(=O)N[C@@H](CS)C(=O)N[C@@H](CCCNC(=N)N)C(=O)O,broth microdilution,"ATCC 27853, Mueller-Hinton broth","16 to 20 h, 37 °C",4.39 µg/mL
CC(C)C[C@H](NC(=O)[C@H](CCCCN)NC(=O)C1CCCC=CCCC(NC(=O)[C@H](CCCCN)NC(=O)[C@@H](N)CC(C)C)C(=O)N[C@@H](CCCCN)C(=O)NC2CCC=CCCCC(NC(=O)[C@H](CCCCN)NC(=O)CNC(=O)[C@H]3CCCN3C(=O)[C@H](CCCCN)NC2=O)C(=O)N[C@@H](CCCCN)C(=O)N1)C(N)=O (stereo partly shown),broth microdilution,"ATCC 9027, Mueller-Hinton broth","18 h, 37 °C",64 µM
CC[C@H](C)[C@H](NC(=O)[C@@H](CCCNC(=N)N)NC(=O)[C@H](CCCNC(=N)N)NC(=O)[C@@H]1CCCN1C(=O)[C@@H]1CCCN1C(=O)[C@H](CCCNC(=N)N)NC(=O)[C@@H]1CCCN1C(=O)[C@H](CCCNC(=N)N)NC(=O)[C@@H]1CCCN1C(=O)[C@H](Cc1ccccc1)NC(=O)[C@H](Cc1ccc(O)cc1)NC(=O)[C@@H]1CCCN1C(=O)[C@@H]1CCCN1C(=O)[C@H](CCCCN)NC(=O)[C@H](CC(=O)O)NC(=O)[C@@H](N)C(C)C)C(=O)N[C@@H](Cc1ccc(O)cc1)C(=O)N[C@@H](CC(N)=O)C(=O)N[C@H](CCCNC(=N)N)C(N)=O,broth microdilution,DSM 1117,"18 h, 37 °C, 25% MHB2",> 128 µg/mL
CC(=CC(C)CCCCC(=O)O)C1OC2C=CC1OC(=O)C=CC=CC=CC1OC3CC1OC(C=CCC1OC(CC(O)C1C)C(O)C(O)C=CCCC=CC2)C3C (stereo not shown),,DSM 117,,> 20 µM
CC[C@H](C)[C@H](NC(=O)[C@H](CCCNC(=N)N)NC(=O)[C@H](Cc1c[nH]c2ccccc12)NC(=O)[C@H](Cc1c[nH]c2ccccc12)NC(=O)[C@H](CCCNC(=N)N)NC(=O)[C@@H](N)CCCNC(=N)N)C(=O)N[C@@H](Cc1c[nH]c2ccccc12)C(N)=O,,27023,,8 µg/mL
CC(C)C[C@@H]1NC(=O)[C@@H](CC(C)C)NC(=O)[C@H](CCN)NC(=O)[C@@H](NC(=O)[C@H](CCN)NC(=O)[C@@H](NC(=O)CCCCN=[N+]=[N-])[C@@H](C)O)CCNC(=O)[C@H]([C@@H](C)O)NC(=O)[C@H](CCN)NC(=O)[C@H](CCN)NC1=O,broth microdilution,"ATCC 25922, cation-adjusted Mueller-Hinton broth",,8 µM
CCCCCCCC(=O)N[C@@H](CCN)C(=O)N[C@H](C(=O)N[C@@H](CCN)C(=O)N[C@H]1CCNC(=O)[C@H]([C@@H](C)O)NC(=O)[C@H](CCN)NC(=O)[C@H](CCN)NC(=O)[C@H](CCCc2ccccc2)NC(=O)[C@@H](CC(C)C)NC(=O)[C@H](CCN)NC1=O)[C@@H](C)O,broth microdilution,colistin-resistant isolates,,0.5 to 1 µg/mL

# Excerpt of the above:
Compound,assay,system,conditions,MIC
CC[C@H](C)[C@H](NC(=O)[C@@H](CCCNC(=N)N)NC(=O)[C@H](CCCNC(=N)N)NC(=O)[C@@H]1CCCN1C(=O)[C@@H]1CCCN1C(=O)[C@H](CCCNC(=N)N)NC(=O)[C@@H]1CCCN1C(=O)[C@H](CCCNC(=N)N)NC(=O)[C@@H]1CCCN1C(=O)[C@H](Cc1ccccc1)NC(=O)[C@H](Cc1ccc(O)cc1)NC(=O)[C@@H]1CCCN1C(=O)[C@@H]1CCCN1C(=O)[C@H](CCCCN)NC(=O)[C@H](CC(=O)O)NC(=O)[C@@H](N)C(C)C)C(=O)N[C@@H](Cc1ccc(O)cc1)C(=O)N[C@@H](CC(N)=O)C(=O)N[C@H](CCCNC(=N)N)C(N)=O,broth microdilution,DSM 1117,"18 h, 37 °C, 25% MHB2",> 128 µg/mL
CC(=CC(C)CCCCC(=O)O)C1OC2C=CC1OC(=O)C=CC=CC=CC1OC3CC1OC(C=CCC1OC(CC(O)C1C)C(O)C(O)C=CCCC=CC2)C3C (stereo not shown),,DSM 117,,> 20 µM
CC[C@H](C)[C@H](NC(=O)[C@H](CCCNC(=N)N)NC(=O)[C@H](Cc1c[nH]c2ccccc12)NC(=O)[C@H](Cc1c[nH]c2ccccc12)NC(=O)[C@H](CCCNC(=N)N)NC(=O)[C@@H](N)CCCNC(=N)N)C(=O)N[C@@H](Cc1c[nH]c2ccccc12)C(N)=O,,27023,,8 µg/mL
